Measured values pooled from the literature.
Compare with care: the assays were run in different laboratories. Numbers after ± are the reported error. Values after ≈ are worked out from the molar mass of the structure shown.
Chain of UniProt Q91X56 (whole entry, looked up): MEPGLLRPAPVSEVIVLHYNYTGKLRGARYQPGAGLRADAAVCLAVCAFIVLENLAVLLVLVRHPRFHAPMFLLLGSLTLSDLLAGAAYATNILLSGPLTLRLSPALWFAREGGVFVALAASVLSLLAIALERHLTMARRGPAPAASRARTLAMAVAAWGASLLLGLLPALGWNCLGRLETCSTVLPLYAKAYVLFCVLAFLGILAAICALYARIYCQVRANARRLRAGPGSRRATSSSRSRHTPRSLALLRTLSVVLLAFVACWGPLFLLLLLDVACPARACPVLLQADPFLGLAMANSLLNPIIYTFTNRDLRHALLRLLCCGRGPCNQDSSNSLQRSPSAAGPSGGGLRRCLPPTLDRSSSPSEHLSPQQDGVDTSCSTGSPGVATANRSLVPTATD
Chain of UniProt P21397 (whole entry, looked up): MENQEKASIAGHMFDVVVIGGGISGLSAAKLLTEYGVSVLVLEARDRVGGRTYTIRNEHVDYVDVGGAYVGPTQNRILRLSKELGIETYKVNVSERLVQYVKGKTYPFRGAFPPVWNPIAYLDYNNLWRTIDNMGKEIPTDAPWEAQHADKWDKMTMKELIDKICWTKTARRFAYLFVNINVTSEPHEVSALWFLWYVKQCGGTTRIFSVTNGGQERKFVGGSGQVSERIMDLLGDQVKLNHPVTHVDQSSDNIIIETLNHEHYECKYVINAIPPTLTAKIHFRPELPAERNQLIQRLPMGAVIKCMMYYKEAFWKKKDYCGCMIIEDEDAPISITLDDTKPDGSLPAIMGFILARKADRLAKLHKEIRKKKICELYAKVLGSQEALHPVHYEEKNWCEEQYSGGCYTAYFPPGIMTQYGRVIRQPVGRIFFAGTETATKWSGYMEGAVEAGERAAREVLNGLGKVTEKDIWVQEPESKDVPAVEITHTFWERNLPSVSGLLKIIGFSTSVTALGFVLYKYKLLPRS

| SMILES | tested on | test | test system | conditions | scale | quantity | result |
| --- | --- | --- | --- | --- | --- | --- | --- |
| CC[C@H](C)[C@H](NC(=O)[C@H](C)NC(=O)[C@H](CCC(=O)O)NC(=O)[C@H](Cc1c[nH]cn1)NC(=O)[C@@H](NC(=O)[C@H](CCCCN)NC(=O)[C@H](CCC(N)=O)NC(=O)[C@H](Cc1ccccc1)NC(=O)[C@@H](NC(=O)[C@H](CCCCN)NC(=O)[C@H](CCCCN)NC(=O)[C@H](CC(C)C)NC(=O)[C@H](C)NC(=O)[C@H](CC(N)=O)NC(=O)[C@@H](N)CC(C)C)C(C)C)[C@@H](C)CC)C(=O)N[C@@H](CCCCN)C(N)=O | Escherichia coli | broth microdilution | ATCC 25922 | 18 h, 37 °C |  | MIC | 4 µM (≈ 7.52 µg/mL) |
| NC1CC1c1ccc(NC(=O)Cc2ccccc2)cc1 (centres unmarked) | MAOA (Homo sapiens, UniProt P21397) | enzyme activity, inhibitor, HRP-coupled |  | 100 µM, with: kynuramine substrate |  | inhibition | 96% |
| CC[C@H](C)[C@H](NC(=O)[C@H](CCCCN)NC(=O)[C@H](CCC(N)=O)NC(=O)[C@H](Cc1ccccc1)NC(=O)[C@@H](NC(=O)[C@H](CCCCN)NC(=O)[C@H](CCCCN)NC(=O)[C@H](CC(C)C)NC(=O)[C@H](C)NC(=O)[C@H](CC(N)=O)NC(=O)[C@@H](N)CC(C)C)C(C)C)C(=O)N[C@@H](Cc1c[nH]cn1)C(N)=O | Escherichia coli |  | ATCC 25922 | 0.5 x MIC, 20 passages |  | MIC increase | no effect |
| CC[C@H](C)[C@H](NC(=O)[C@H](C)NC(=O)CNC(=O)[C@H](CCCCN)NC(=O)[C@H](CC(N)=O)NC(=O)[C@H](CO)NC(=O)CNC(=O)[C@@H](NC(=O)[C@H](CC(=O)O)NC(=O)[C@H](C)NC(=O)[C@H](Cc1ccccc1)NC(=O)[C@H](Cc1ccccc1)NC(=O)[C@@H](NC(=O)[C@H](CC(C)C)NC(=O)[C@H](CCCCN)NC(=O)[C@H](CCC(N)=O)NC(=O)[C@H](Cc1c[nH]cn1)NC(=O)[C@H](Cc1c[nH]cn1)NC(=O)[C@@H](NC(=O)[C@H](CCC(=O)O)NC(=O)[C@H](Cc1ccc(O)cc1)NC(=O)CNC(=O)[C@H](CO)NC(=O)[C@H](CC(=O)O)NC(=O)[C@H](Cc1c[nH]cn1)NC(=O)[C@H](CCCNC(=N)N)NC(=O)[C@H](Cc1ccccc1)NC(=O)[C@H](CCC(=O)O)NC(=O)[C@H](C)NC(=O)[C@@H](N)CC(=O)O)C(C)C)C(C)C)C(C)C)C(=O)N[C@H](C(=O)NCC(=O)N[C@@H](CC(C)C)C(=O)N[C@@H](CCSC)C(=O)N[C@H](C(=O)NCC(=O)NCC(=O)N[C@H](C(=O)N[C@H](C(=O)O)C(C)C)C(C)C)C(C)C)[C@@H](C)CC |  | fibrillization, reverse phase HPLC |  | 2 weeks, pH 7.40, equimolar mixture supernatant |  | soluble peptide concentration | 12.1 µM |
| CC[C@H](C)[C@H](NC(=O)[C@H](CC(C)C)NC(=O)[C@H](CCCCN)NC(=O)[C@@H](NC(=O)[C@H](C)NC(=O)[C@H](CCC(=O)O)NC(=O)[C@H](Cc1c[nH]cn1)NC(=O)[C@@H](NC(=O)[C@H](CCCCN)NC(=O)[C@H](CCC(N)=O)NC(=O)[C@H](Cc1ccccc1)NC(=O)[C@@H](NC(=O)[C@H](CCCCN)NC(=O)[C@H](CCCCN)NC(=O)[C@H](CC(C)C)NC(=O)[C@H](C)NC(=O)[C@H](CC(N)=O)NC(=O)[C@@H](N)CC(C)C)C(C)C)[C@@H](C)CC)[C@@H](C)CC)C(N)=O | Gram-positive and Gram-negative bacteria |  |  |  |  | geometric mean MIC | 4.36 µM |
| NC1CC1c1ccc(NC(=O)C(NC(=O)OCc2ccccc2)C(c2ccccc2)c2ccccc2)cc1 (centres unmarked) | MV4-11 AML cells |  |  |  |  | IC50 | 5 ± 0.8 µM |
| CCCCCn1ccc(=O)c(O)c1C |  | shake-flask method, measured: iron(III) complex | 1-octanol/tris buffer | pH 7.4, with: iron(III), ligand:iron 10:1 | reference: octanol over buffer | partition coefficient | 480 ± 60 |
| CC(C)(C)[C@H]1CC[C@H](Oc2cc([18F])c3ccccc3c2CN2CCC(C(=O)O)CC2)CC1 | Sphingosine 1-phosphate receptor 5 (S1pr5, Mus musculus, UniProt Q91X56) | saturation autoradiography | C57BL/6 mouse brain sections |  |  | Bmax | 427 ± 38.5 fmol/mg |

Excerpt of the above:
| SMILES | tested on | test | test system | conditions | scale | quantity | result |
| --- | --- | --- | --- | --- | --- | --- | --- |
| CC[C@H](C)[C@H](NC(=O)[C@H](C)NC(=O)[C@H](CCC(=O)O)NC(=O)[C@H](Cc1c[nH]cn1)NC(=O)[C@@H](NC(=O)[C@H](CCCCN)NC(=O)[C@H](CCC(N)=O)NC(=O)[C@H](Cc1ccccc1)NC(=O)[C@@H](NC(=O)[C@H](CCCCN)NC(=O)[C@H](CCCCN)NC(=O)[C@H](CC(C)C)NC(=O)[C@H](C)NC(=O)[C@H](CC(N)=O)NC(=O)[C@@H](N)CC(C)C)C(C)C)[C@@H](C)CC)C(=O)N[C@@H](CCCCN)C(N)=O | Escherichia coli | broth microdilution | ATCC 25922 | 18 h, 37 °C |  | MIC | 4 µM (≈ 7.52 µg/mL) |
